Experimental data from different studies.
Protocols differ between the studies behind these lines. Numbers after ± are the reported error.

Structure (SMILES)	system	conditions	how to read	quantity	value
Cc1cc(-c2ccc(NC(=O)[C@H](CCCCNC(=O)CCN3C(=O)CC(SCCC(=O)N[C@H](Cc4ccccc4)C(=O)N[C@H]4CSSC[C@@H](C(=O)N[C@H](C(=O)O)[C@@H](C)O)NC(=O)[C@H]([C@@H](C)O)NC(=O)[C@H](CCCCN)NC(=O)[C@@H](Cc5c[nH]c6ccccc56)NC(=O)[C@H](Cc5ccc(O)cc5)NC4=O)C3=O)NC(=O)CN3CCN(CC(=O)O)CCN(CC(=O)O)CCN(CC(=O)O)CC3)c(C)c2)ccc1N=Nc1ccc2c(S(=O)(=O)O)cc(S(=O)(=O)O)c(N)c2c1O (stereo partly drawn) [lutetium-177 labelled]	metastatic NET patients, lymph node metastases			residence time	0.26 ± 0.07 h
CCCC[C@H](NC(=O)CNC(=O)CNC(=O)CN1CCN(CC(=O)O)CCN(CC(=O)O)CC1)C(=O)N[C@H]1CC(=O)NCCCC[C@@H](C(N)=O)NC(=O)[C@H](Cc2c[nH]c3ccccc23)NC(=O)[C@H](CCCNC(=N)N)NC(=O)[C@@H](Cc2ccccc2)NC(=O)[C@H](Cc2c[nH]cn2)NC1=O [technetium-99m labelled]	C57 mouse, kidney	iv, 0.037 MBq, 2 h		tissue uptake	1.59 ± 0.52 %ID/g
CCCC[C@H](NC(=O)COCCOCCNC(=O)CN1CCN(CC(=O)O)CCN(CC(=O)O)CC1)C(=O)N[C@H]1CC(=O)NCCCC[C@@H](C(N)=O)NC(=O)[C@H](Cc2c[nH]c3ccccc23)NC(=O)[C@H](CCCNC(=N)N)NC(=O)[C@@H](Cc2ccccc2)NC(=O)[C@H](Cc2c[nH]cn2)NC1=O [copper-64 labelled]	C57 mice, pancreas	intravenous, 0.37 MBq, 0.5 h		tissue uptake	1.1 ± 0.2 %ID/g
N=C(N)NCCC[C@@H]1NC(=O)[C@H](CCCCNC(=O)CNC(=O)CNC(=O)CNC(=O)CC[C@H](NC(=O)CNC(=O)CNC(=O)CNC(=O)CC[C@H](NC(=O)CN2CCN(CC(=O)O)CCN(CC(=O)O)CCN(CC(=O)O)CC2)C(=O)NCC(=O)NCC(=O)NCC(=O)N[C@@H](CCC(=O)NCC(=O)NCC(=O)NCC(=O)NCCCC[C@@H]2NC(=O)[C@@H](Cc3ccccc3)NC(=O)[C@H](CC(=O)O)NC(=O)CNC(=O)[C@H](CCCNC(=N)N)NC2=O)C(=O)NCC(=O)NCC(=O)NCC(=O)NCCCC[C@@H]2NC(=O)[C@@H](Cc3ccccc3)NC(=O)[C@H](CC(=O)O)NC(=O)CNC(=O)[C@H](CCCNC(=N)N)NC2=O)C(=O)NCC(=O)NCC(=O)NCC(=O)NCCCC[C@@H]2NC(=O)[C@@H](Cc3ccccc3)NC(=O)[C@H](CC(=O)O)NC(=O)CNC(=O)[C@H](CCCNC(=N)N)NC2=O)NC(=O)[C@@H](Cc2ccccc2)NC(=O)[C@H](CC(=O)O)NC(=O)CNC1=O [indium-111 labelled]	female athymic nu/nu mice, spleen	intravenous, 111 kBq, 1 h		tissue uptake	2.38 ± 0.49 %ID/g
CC1=C(I)C(C)=[N+]2C1=C(c1ccc(OCCn3cc(CNC(=O)CSC[C@H](NC(=O)c4ccc(-c5nnc(C)nn5)cc4)C(=O)N[C@@H](CC4CCCCC4)C(=O)N[C@H](CCCNC(=N)N)C(=O)N[C@@H](CC4CCCCC4)C(=O)N[C@H](CCCNC(=N)N)C(=O)N[C@@H](CC4CCCCC4)C(=O)N[C@H](CCCNC(=N)N)C(N)=O)nn3)cc1)c1c(C)c(I)c(C)n1[B-]2(F)F		1 µM, together with: DPBF, 525 nm light	baseline: rose bengal, erythrosine B	singlet oxygen quantum yield	0.56
CCCC[C@H](NC(=O)CCCCCCCNC(=O)CN1CCN(CC(=O)O)CCN(CC(=O)O)CC1)C(=O)N[C@H]1CC(=O)NCCCC[C@@H](C(N)=O)NC(=O)[C@H](Cc2c[nH]c3ccccc23)NC(=O)[C@H](CCCNC(=N)N)NC(=O)[C@@H](Cc2ccccc2)NC(=O)[C@H](Cc2c[nH]cn2)NC1=O [copper-64 labelled]	C57 mice, muscle	intravenous, 0.37 MBq, 4 h		tissue uptake	0.03 ± 0.01 %ID/g
N=C(N)NCCC[C@@H]1NC(=O)[C@H](CCCCNC(=O)CNC(=O)CNC(=O)CNC(=O)CC[C@H](NC(=O)CNC(=O)CNC(=O)CNC(=O)CN2CCN(CC(=O)O)CCN(CC(=O)O)CCN(CC(=O)O)CC2)C(=O)NCC(=O)NCC(=O)NCC(=O)NCCCC[C@@H]2NC(=O)[C@@H](Cc3ccccc3)NC(=O)[C@H](CC(=O)O)NC(=O)CNC(=O)[C@H](CCCNC(=N)N)NC2=O)NC(=O)[C@@H](Cc2ccccc2)NC(=O)[C@H](CC(=O)O)NC(=O)CNC1=O [indium-111 labelled]	female athymic nu/nu mice, muscle	intravenous, 0.5 h		tissue uptake	1.33 ± 0.24 %ID/g
CC1(C)C(/C=C/C=C/C=C2/N(CCCCCC(=O)NCCCC[C@@H]3NC(=O)[C@@H](Cc4ccc(O)cc4)NC(=O)[C@H](CC(=O)O)NC(=O)CNC(=O)[C@H](CCCNC(=N)N)NC3=O)c3ccccc3C2(C)C)=[N+](CCCCn2nnc3c2-c2ccccc2CN(C(=O)CCC(=O)NCCNC(=O)CN(CCN(CC(=O)O)CC(=O)O)CCN(CC(=O)O)CC(=O)O)c2ccccc2-3)c2ccc(S(=O)(=O)[O-])cc21	PBS			fluorescence quantum yield	12%
Cc1cc(-c2ccc(NC(=O)[C@H](CCCCNC(=O)CCOCCOCCC(=O)N[C@H](Cc3ccccc3)C(=O)N[C@H]3CSSC[C@@H](C(=O)N[C@H](C(=O)O)[C@@H](C)O)NC(=O)[C@H]([C@@H](C)O)NC(=O)[C@H](CCCCN)NC(=O)[C@@H](Cc4c[nH]c5ccccc45)NC(=O)[C@H](Cc4ccc(O)cc4)NC3=O)NC(=O)CN3CCN(CC(=O)O)CCN(CC(=O)O)CCN(CC(=O)O)CC3)c(C)c2)ccc1N=Nc1ccc2c(S(=O)(=O)O)cc(S(=O)(=O)O)c(N)c2c1O [lutetium-177 labelled]	patients with metastatic neuroendocrine tumours, all metastatic lesions		baseline: compound over 177Lu-EB-TATE	effective half-life ratio	1.4 fold
